# Measured values of several laboratories.
# Numbered parts are unrelated; each lists some results of a single study. Substitutions count along the parent as printed.
# UniProt Q9BVS4, sequence (whole entry, looked up): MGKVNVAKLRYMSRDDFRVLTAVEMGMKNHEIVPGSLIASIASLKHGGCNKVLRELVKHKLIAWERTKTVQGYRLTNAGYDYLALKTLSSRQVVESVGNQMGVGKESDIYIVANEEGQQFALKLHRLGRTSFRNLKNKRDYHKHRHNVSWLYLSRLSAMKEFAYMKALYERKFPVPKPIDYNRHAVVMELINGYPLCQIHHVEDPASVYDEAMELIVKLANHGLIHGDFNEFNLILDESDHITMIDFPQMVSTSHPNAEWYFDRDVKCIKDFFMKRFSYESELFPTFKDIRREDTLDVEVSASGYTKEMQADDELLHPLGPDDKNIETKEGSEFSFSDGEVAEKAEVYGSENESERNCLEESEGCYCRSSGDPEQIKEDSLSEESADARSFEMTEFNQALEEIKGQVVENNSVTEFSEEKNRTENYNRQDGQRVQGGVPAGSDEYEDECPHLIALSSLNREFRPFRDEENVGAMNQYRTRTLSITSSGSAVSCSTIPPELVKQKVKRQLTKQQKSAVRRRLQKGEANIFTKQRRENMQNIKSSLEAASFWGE
# UniProt Q9Y3S1, sequence (whole entry, looked up): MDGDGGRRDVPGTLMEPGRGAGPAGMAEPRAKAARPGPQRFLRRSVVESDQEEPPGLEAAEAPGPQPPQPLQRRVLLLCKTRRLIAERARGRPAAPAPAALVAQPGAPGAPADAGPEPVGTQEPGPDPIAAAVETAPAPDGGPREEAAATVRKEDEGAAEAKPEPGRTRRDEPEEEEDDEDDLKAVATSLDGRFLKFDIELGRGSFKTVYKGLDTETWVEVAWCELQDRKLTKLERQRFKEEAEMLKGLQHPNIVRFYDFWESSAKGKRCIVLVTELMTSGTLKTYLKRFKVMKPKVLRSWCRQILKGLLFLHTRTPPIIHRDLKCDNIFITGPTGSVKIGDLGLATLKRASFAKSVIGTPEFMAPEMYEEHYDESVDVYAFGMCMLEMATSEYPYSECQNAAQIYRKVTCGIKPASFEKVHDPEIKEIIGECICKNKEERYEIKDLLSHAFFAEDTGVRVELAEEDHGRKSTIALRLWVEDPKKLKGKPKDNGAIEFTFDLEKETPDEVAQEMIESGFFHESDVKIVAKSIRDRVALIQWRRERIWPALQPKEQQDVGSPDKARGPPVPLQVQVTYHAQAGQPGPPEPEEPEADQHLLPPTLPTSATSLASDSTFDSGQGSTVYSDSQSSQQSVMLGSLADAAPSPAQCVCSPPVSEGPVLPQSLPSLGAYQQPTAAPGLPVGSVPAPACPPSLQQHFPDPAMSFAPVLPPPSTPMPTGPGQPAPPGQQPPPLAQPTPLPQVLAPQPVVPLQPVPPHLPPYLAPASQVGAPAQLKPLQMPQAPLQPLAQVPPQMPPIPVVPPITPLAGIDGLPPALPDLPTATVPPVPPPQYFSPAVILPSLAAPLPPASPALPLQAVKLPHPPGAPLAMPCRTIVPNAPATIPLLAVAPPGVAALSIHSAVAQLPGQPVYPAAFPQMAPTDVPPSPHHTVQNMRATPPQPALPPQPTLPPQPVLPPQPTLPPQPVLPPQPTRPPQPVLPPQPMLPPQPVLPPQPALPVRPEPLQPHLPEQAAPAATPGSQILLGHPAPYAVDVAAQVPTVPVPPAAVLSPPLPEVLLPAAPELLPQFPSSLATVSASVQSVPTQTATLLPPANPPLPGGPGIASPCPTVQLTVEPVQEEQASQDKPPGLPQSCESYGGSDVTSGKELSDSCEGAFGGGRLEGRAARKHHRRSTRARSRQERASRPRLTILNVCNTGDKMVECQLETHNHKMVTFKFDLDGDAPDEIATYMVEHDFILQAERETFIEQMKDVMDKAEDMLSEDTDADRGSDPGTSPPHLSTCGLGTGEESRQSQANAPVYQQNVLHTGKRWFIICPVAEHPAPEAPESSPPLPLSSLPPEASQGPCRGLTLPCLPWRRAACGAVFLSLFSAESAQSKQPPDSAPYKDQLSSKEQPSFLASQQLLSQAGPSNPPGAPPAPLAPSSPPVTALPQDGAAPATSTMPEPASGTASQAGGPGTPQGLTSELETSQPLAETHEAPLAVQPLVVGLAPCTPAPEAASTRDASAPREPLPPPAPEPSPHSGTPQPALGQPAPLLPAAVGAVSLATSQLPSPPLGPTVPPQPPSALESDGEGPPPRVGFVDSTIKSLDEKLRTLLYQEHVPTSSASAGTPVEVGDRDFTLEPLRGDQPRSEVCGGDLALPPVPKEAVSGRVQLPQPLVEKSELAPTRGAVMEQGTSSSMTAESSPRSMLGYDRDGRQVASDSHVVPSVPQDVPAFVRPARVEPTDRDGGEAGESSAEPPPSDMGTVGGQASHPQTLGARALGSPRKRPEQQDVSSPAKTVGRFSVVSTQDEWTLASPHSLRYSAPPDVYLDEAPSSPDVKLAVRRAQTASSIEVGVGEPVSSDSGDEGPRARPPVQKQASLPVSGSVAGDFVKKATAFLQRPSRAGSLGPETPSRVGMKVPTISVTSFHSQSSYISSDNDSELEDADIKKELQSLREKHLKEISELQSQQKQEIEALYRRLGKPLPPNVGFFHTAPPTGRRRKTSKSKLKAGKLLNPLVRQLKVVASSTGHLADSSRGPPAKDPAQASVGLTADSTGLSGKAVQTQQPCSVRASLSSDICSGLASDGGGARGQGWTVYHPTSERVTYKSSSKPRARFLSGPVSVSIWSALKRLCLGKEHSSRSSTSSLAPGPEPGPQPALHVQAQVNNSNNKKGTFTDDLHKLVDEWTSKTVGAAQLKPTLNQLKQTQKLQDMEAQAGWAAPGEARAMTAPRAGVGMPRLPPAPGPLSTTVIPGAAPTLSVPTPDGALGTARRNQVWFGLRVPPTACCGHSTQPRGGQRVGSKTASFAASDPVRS

# Sample 1
# Target: CEBPD, bZIP domain (human)
# Method: DHFR protein complementation
# Matrix: yeast
# Setting: single substitutions, most at no-binding floor
# Reference: wild-type JUN-FOS pair
# Reading: higher = stronger binding
# Starting sequence: JUN, bZIP domain (human); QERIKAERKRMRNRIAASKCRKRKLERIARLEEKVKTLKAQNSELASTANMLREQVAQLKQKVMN; partner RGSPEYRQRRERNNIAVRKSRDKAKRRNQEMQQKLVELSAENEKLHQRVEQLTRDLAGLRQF
Change,binding fitness
L38Q,-1.57 natural log
A40E,-1.29 natural log
K39N,-1.46 natural log
S47Y,-1.3 natural log
L38M,-1.49 natural log
E44K,-1.41 natural log
A49G,-1.5 natural log
E33I,-1.55 natural log

# Sample 2
# Target: Ras GTPase-activating protein-binding protein 1, full length (G3BP1, Homo sapiens, UniProt Q13283)
# UniProt Q13283, sequence (whole entry, looked up): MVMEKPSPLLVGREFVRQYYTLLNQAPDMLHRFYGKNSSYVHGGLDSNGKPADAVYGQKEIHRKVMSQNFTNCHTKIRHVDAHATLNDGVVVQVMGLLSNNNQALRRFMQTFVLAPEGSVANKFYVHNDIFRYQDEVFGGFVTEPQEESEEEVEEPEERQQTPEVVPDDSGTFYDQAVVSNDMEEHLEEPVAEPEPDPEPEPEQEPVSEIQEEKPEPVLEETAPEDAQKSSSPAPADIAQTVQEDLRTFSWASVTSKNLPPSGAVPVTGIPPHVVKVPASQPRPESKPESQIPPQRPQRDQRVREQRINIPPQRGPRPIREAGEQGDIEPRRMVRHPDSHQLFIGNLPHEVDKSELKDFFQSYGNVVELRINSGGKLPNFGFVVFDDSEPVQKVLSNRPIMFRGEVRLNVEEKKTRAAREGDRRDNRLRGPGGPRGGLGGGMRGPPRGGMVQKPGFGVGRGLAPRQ
# Method: RNA Bind-n-Seq
# Form: RNA
# Matrix: in vitro
# Tested at: 200 nM
# Setting: whole 134-nt RNA, ends assumed
# Added: 150 mM LiCl
# Reference: input library
# Reading: higher = stronger binding
# All molecules: 7-deaza-guanosine replaces G
# Constant ends, left off below: GGGAGUUCUACAGUCCGACGAUC … UGGAAUUCUCGGGUGUCAAGG
Strand,log2 enrichment
AGUCCUGUGCUACACAUCGUAUGUACCGAAUCGGGGUGGGGAAAAAAAGGGGUGGGGAAAGUAUUAUGUUACGCCGUUCGGAUCUGCACU,0.301
UAACUUUAGAGGAGGAUCUGAUGGAUAUGGCAGUGGACGUGGAUUUGGGGAUGGCUAGAAUGGGUAUGGAGGAGGACCUGGAGGUGGCAA,0.406
AGUCCUGUGCUACACAUCGUAUGUACCGAAUCGGGAAAAAAAGGGUGGGUUUUUGGGAAAGUAUUAUGUUACGCCGUUCGGAUCUGCACU,-1.64
UCCUGUGCUACACAUCGUAUGUACCGAAUCGGGGUUUUUGGGGAGGGGAAAAAAAGGGGAAAGUAUUAUGUUACGCCGUUCGGAUCUGCA,-0.0801
CCUGUGCUACACAUCGUAUGUACCGAAUCGGUUUUUUGGGGUUUUUUGGGUUUUUUGGGGAAAGUAUUAUGUUACGCCGUUCGGAUCUGC,-0.0812
UUAAGUUGAAGGAGCGCUACCGCAACGUGCUGGACACCAUGUUCGAGCUGCUGCCCCGGAUGGCCAGGUACUGCCAGCCCCCACCCUGGC,-0.14
CACAGACAACACGCACCCACACAGACACAGAGGGAAGGGGUUGGGAUGGGGACAGGGUGCACAGUAGGGCGGGGUAGGACCCCAGCCCCU,-0.0919
UGGAGGAGCCAUAGAAUAUUAAGGAUGAAUUCAGGAAGGCCUGAGACCAUGGAAAACUUGCCUGCUCUCUACACUAUUUUCCAAGGAGAG,-0.575

# Sample 3
# SMILES: CN(c1ccnc(CNc2nc(Nc3ccc4c(c3)CC(=O)N4)ncc2C(F)(F)F)n1)S(C)(=O)=O
# Method: competition with immobilised ligand
# Tested at: 1 µM
target,observed,remaining binding
"Serine/threonine-protein kinase WNK2 (WNK2, Homo sapiens, UniProt Q9Y3S1)",cell-free assay,22%
"Serine/threonine-protein kinase WNK4 (WNK4, Homo sapiens, UniProt Q96J92)",binding,0%
"Serine/threonine-protein kinase mTOR (MTOR, Homo sapiens, UniProt P42345)",cell-free assay,94%
"Serine/threonine-protein kinase RIO2 (RIOK2, Homo sapiens, UniProt Q9BVS4)",cell-free assay,81%
"Serine/threonine-protein kinase pim-3 (PIM3, Homo sapiens, UniProt Q86V86)",cell-free assay,77%

# Sample 4
# Target: Tyrosine-protein kinase JAK1 (JAK1, Homo sapiens, UniProt P23458)
# UniProt P23458, sequence (whole entry, looked up): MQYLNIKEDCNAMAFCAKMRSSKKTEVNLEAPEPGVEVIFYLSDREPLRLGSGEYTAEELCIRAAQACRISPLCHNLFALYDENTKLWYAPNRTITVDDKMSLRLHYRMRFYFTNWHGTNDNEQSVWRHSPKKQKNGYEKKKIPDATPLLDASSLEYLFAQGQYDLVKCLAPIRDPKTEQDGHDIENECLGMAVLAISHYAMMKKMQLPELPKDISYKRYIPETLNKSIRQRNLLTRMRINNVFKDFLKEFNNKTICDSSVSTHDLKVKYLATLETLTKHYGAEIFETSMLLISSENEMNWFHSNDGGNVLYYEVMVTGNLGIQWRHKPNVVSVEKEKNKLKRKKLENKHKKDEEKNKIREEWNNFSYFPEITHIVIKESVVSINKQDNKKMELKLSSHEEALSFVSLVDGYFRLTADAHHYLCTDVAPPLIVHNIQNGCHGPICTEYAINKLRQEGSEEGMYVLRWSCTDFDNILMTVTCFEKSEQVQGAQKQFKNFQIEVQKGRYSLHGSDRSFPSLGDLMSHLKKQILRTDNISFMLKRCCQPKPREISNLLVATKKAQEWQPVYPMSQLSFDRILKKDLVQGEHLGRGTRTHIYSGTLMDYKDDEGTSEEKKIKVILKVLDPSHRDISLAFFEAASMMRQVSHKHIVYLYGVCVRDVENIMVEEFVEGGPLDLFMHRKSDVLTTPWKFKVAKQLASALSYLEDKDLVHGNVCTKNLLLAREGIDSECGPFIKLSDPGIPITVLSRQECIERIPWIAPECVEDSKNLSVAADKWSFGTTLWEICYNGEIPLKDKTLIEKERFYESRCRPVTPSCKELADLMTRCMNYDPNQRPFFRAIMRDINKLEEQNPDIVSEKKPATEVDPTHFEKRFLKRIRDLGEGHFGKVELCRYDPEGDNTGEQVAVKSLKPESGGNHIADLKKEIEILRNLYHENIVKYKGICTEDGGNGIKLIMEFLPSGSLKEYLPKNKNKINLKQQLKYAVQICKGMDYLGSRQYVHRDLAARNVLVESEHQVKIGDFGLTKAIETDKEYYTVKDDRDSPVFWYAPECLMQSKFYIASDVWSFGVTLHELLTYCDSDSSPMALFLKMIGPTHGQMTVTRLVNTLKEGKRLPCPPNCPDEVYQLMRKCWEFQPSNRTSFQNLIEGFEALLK
# Observed: enzyme activity
# Mode: inhibitor
# Tested at: 0.5 µM
# Reference: control
Compound,remaining activity [%]
Cn1sc(=O)n(Cc2ccccc2)c1=O,103
CCOC(=O)c1c(C)[nH]c(/C=C2\C(=O)Nc3ccccc32)c1C,97.1
O=C(CCCc1ccc(-c2ccccc2F)cc1)Nc1ccc(O)cc1,98.2
O=C1NC(=O)C(c2cn(CCCn3ccnc3)c3ccccc23)=C1Nc1ccccc1,82.1
CC(C)[C@H](CO)Nc1nc(Nc2cc(N)cc(Cl)c2)c2ncn(C(C)C)c2n1,101
Cn1c2ccccc2c2c3c(c4c5ccccc5n(CCC#N)c4c21)CNC3=O,20.2
CNC(=O)c1cc(Oc2ccc(NC(=O)Nc3ccc(Cl)c(C(F)(F)F)c3)cc2)ccn1,110
Cc1ccc(NC(=O)c2ccc(CN3CCN(C)CC3)cc2)cc1Nc1nc(-c2cccnc2)cs1,98.8
C#Cc1cccc(Nc2ncnc3cc(OCCOC)c(OCCOC)cc23)c1,91.2
O=C1NC(=O)C(c2cn(CCCO)c3ncccc23)=C1c1cnccn1,117
COc1cc2nccc(Oc3ccc(NC(=S)NC(=O)c4ccccc4C)cc3)c2cc1OC,96.7
O=C(Nc1cccc(Nc2cc(Nc3cccc(C(F)(F)F)c3)ncn2)c1)C1CC1,103
O=c1c2ccccc2[nH]c(=S)n1CCN1CCC(=C(c2ccc(F)cc2)c2ccc(F)cc2)CC1,105
Cc1cccc(-c2[nH]c(C(C)(C)C)nc2-c2ccc3c(c2)OCO3)n1,96.1

# Some of these lines once more (sample 4):
Compound,remaining activity [%]
CNC(=O)c1cc(Oc2ccc(NC(=O)Nc3ccc(Cl)c(C(F)(F)F)c3)cc2)ccn1,110
Cc1ccc(NC(=O)c2ccc(CN3CCN(C)CC3)cc2)cc1Nc1nc(-c2cccnc2)cs1,98.8
C#Cc1cccc(Nc2ncnc3cc(OCCOC)c(OCCOC)cc23)c1,91.2
O=C1NC(=O)C(c2cn(CCCO)c3ncccc23)=C1c1cnccn1,117
COc1cc2nccc(Oc3ccc(NC(=S)NC(=O)c4ccccc4C)cc3)c2cc1OC,96.7
O=C(Nc1cccc(Nc2cc(Nc3cccc(C(F)(F)F)c3)ncn2)c1)C1CC1,103
